Measurements collected from several papers.
Numbered parts are unrelated; each lists some results of a single study. Substitutions count along the parent as printed.

Sample 1
Target: Histone acetyltransferase KAT6A, winged helix 2, GST fusion (KAT6A, Homo sapiens, UniProt Q92794, residues 85-181)
Method: protein binding microarray
Form: double-stranded DNA, one strand shown
Medium: in vitro
Tested at: not given
Notes: 8-mer, flanks averaged, mean of 2 arrays, mostly near background
Relative to: not given
Direction: higher = stronger binding
Measurement: E-score
Residues (chain): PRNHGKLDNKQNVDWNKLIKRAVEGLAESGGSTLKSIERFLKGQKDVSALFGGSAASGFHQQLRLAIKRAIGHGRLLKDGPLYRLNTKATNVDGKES
Oligonucleotide = GGATATAC; result = 0.00102
Oligonucleotide = CTCGAGCC; result = 0.0327
Oligonucleotide = AGACAGAT; result = 0.0323
Oligonucleotide = ATCCTAAA; result = -0.158
Oligonucleotide = CGCGGCAG; result = 0.134
Oligonucleotide = CGGTTCCA; result = -0.0681
Oligonucleotide = ATATGGCA; result = -0.126
Oligonucleotide = CATGTCTC; result = -0.127
Oligonucleotide = GCATTCAC; result = 0.0846
Oligonucleotide = GGGTGGAA; result = -0.126
Oligonucleotide = CTATTCAA; result = -0.155
Oligonucleotide = ACCGAGTC; result = -0.00784
Oligonucleotide = ACCGCTAG; result = -0.141
Oligonucleotide = GCTGCTAC; result = 0.0206
Oligonucleotide = CCCATTAA; result = -0.145
Oligonucleotide = CCATGTCC; result = -0.0942

Sample 2
Target: RING finger protein unkempt homolog, zinc fingers 1-6, GST-SBP tag (UNK, Homo sapiens, UniProt Q9C0B0, residues 30-357)
Sequence of UniProt Q9C0B0 (30-357, looked up): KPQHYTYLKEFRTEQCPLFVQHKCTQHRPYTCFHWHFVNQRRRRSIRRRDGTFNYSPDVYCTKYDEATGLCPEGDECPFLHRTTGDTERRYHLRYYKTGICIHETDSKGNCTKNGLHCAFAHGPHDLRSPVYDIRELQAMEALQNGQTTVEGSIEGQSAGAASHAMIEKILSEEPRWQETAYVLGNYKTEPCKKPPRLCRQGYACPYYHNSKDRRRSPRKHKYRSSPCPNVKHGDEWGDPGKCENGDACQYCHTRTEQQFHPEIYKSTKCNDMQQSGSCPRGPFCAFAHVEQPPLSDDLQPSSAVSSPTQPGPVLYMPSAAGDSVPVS
Method: RNA Bind-n-Seq
Form: RNA
Medium: in vitro
Tested at: not given
Notes: RNA with constant flanks, human and mouse sites, ends assumed
Relative to: input RNA pool
Direction: higher = stronger binding
Measurement: bound/input enrichment
Shared flanks, not repeated: GGGAGUUCUACAGUCCGACGAUC … CAACAGAGGAUUGAGCAUCA
Oligonucleotide = GUUGAUUCCCUCAACGGGUUAGUUUACGUAGCCCAAAGAGGGGAUAACAUCCCCAAGGUAUUAGUGUUCUCAGAGGAUGGCUAUUUCCUACGAGCCUGGAAUUAUACAGUUGACACACCC; result = 0.176 ratio
Oligonucleotide = UGUGCAUAUGAUGCUUGAGAUGGUUUUUGCAAAAGCAGAAAUCGCUGCAAGGUAAUCACAAUAGAUAAAAGUGGUAUUUUAAACCUUUGAAAUAAAUGGAUGUAACUGUACCUUGGUACA; result = 0.576 ratio
Oligonucleotide = ACUGGAACCUGUGACAAAGUCAAUAACAUCCACCCAGCUGUUCAUACAAAGACUGAUAACUCUGUUGCCUCUUCACCAUCUUCAGCCAUUUCAACAGCAACACCUUCUCCAAAAUCCACU; result = 0.266 ratio
Oligonucleotide = GAUCAGAAAAGGAAAGAAAGAAAAGCUCAGAGGCAAGCAGCAAAAAAUCAAAUGUAUGACGAUUACUACUAUUAUGGUCCACCUCAUAUGCCCCCUCCAACAAGAGGUCGAGGGCGUGGA; result = 0.477 ratio
Oligonucleotide = CAAACCUGCAAUCCUGGAGAAGUAGGGCGAACAGAUAAGGAAAGAAAAAAAUUGAAGUAGGACUUUGGGGCCAAGGGGAGUUCUUUCAAUGCACUCCCCCUUUCUCCCCACCGCCACAGC; result = 0.511 ratio
Oligonucleotide = CAGUCAUGGAGAAAAACAUAUUAAAAUAAUUUCAUGGCAUUGAUGUUAAUUCUAGUCUAUUAGUUUUAUAAAAGUUAGGAUUCUUAUUUAGGAACAACAGGAAAUGACUGUUAAGGAGAA; result = 19.9 ratio
Oligonucleotide = CCCUCCCCGGGCCACCCACCCCUCCCGGCUCCCCGCCGAGAUCCAGGUUUCUUCUUAUUUCAUAGCAAAUAAGAAAAAUGUUCUACGCACAUUUUGUCCUCAGUAAACGAGGGCCUCUGG; result = 0.881 ratio
Oligonucleotide = UAUGUUUACGGAGUCCUGUUUAGUUUGGCAGAAAGCAGAAAGAAAACUGAGAGACUUGCUUUUAGAAAGAACAGACUUCCACCAGAAUUUUCACCAGUGAUCAUUAAAGAAUGGGCAGCU; result = 0.689 ratio
Oligonucleotide = CGUCAGAAGAUACAGAGGGAAUUAAUGAAGCUGGAACAAGAAAACAUGGAGAAGAGAGAAGAAAUUAUCAUUAAAAAGGAGGUUUCACCAGAAGUGGUUAGAUCAAAAUUGUCCCCGUCA; result = 0.662 ratio
Oligonucleotide = UUCAAGAAGUCAAAGCUAAUGAGACAUCAAAAAAGUCACUUAGGGGAAAAACCGAAUAGGUGUGCUGAGUUUGGAAAAAUAUUCCCUGAAAAGUCACAGCUCCUGACACAUCAAAAAAGC; result = 0.158 ratio
Oligonucleotide = CCACCAUUGCCUCCUGAGGAACCACCAGAGGGUCCAGCAUUGCCCACUGAGCAGUCAGCAUUAACAGCUGAAAAUACUUGGCCUACAGAGGUGCCAUCAUCACCAUCUGAAGAGUCUGUA; result = 0.171 ratio

Sample 3
Target: CCNA1, cyclin fold, Cln2 fusion (human)
Method: yeast growth competition, sequencing
Medium: yeast
Notes: weak parent motif
Relative to: not given
Direction: higher = stronger binding
Measurement: normalised enrichment score
Parent: RB1 docking peptide (human); PKPLKKLRFDIEG
Substitution = P1Q; result = 0.107
Substitution = D10T; result = -0.153
Substitution = G13E; result = 0.452
Substitution = P3N; result = 0.106
Substitution = K6L; result = 0.232
Substitution = K5H; result = 0.356
Substitution = L4T; result = 0.00754
Substitution = P3L; result = 0.102
Substitution = I11P; result = 0.249
Substitution = R8I; result = 0.0957
Substitution = F9L; result = 0.263
Substitution = P1M; result = -0.091
Substitution = L4P; result = -0.176
Substitution = P3T; result = 0.0797
Substitution = G13D; result = 0.644
Substitution = E12S; result = 0.109
Substitution = R8Q; result = 0.187
Substitution = E12G; result = 0.409
Substitution = P1H; result = 0.314
Substitution = G13C; result = 0.351
Substitution = P3F; result = 0.048
Substitution = K6A; result = 0.555
Substitution = L7R; result = 0.172
Substitution = F9P; result = 0.0361

Sample 4
Target: UBE2D1 UBC core domain (UniProt P51668)
Method: yeast two-hybrid
Medium: yeast
Notes: mostly zero background
Relative to: not given
Direction: higher = stronger interaction
Measurement: lacZ reporter activity
B1: RNF103 RING domain (UniProt O00237); chain WPADMLHCTECVVCLENFENGCLLMGLPCGHVFHQNCIVMWLAGGRHCCPVCRWPSYKKKQPY
B2: TRIM41 RING domain (UniProt Q8WV44); chain PVQTLQEEAVCAICLDYFTDPVSIGCGHNFCRVCVTQLWGGEDEEDRDELDREEEEEDGEEE
B3: NFX1 RING domain (UniProt Q12986); chain IEQLTTEKYECMVCCELVRVTAPVWSCQSCYHVFHLNCIKKWARSPASQADGQSGWRCPACQNVSAHVPNTY
B4: BFAR RING domain (UniProt Q9NZS9); chain GPQISVSEFSCHCCYDILVNPTTLNCGHSFCRHCLALWWASSKKTECPECREKWEGFPKVS
B5: VPS8 RING domain (UniProt Q8N3P4); chain TRGLNPKQDYCSICLQQYKRRQEMADEIIVFSCGHLYHSFCLQNKECTVEFEGQTRWTCYKCSSSNKVGKLSE
B6: ZNRF4 RING domain (UniProt Q8WWF5); chain VRTFTWHNDLCAICLDEYEEGDQLKILPCSHTYHCKCIDPWFSQAPRRSCPVCKQSVAATEDSF
B7: MARCHF1 RING domain (UniProt Q8TCQ1); chain TAPRSQSRLSVCPSTQDICRICHCEGDEESPLITPCRCTGTLRFVHQSCLHQWIKSSDTRCCELCKYDFIMETKLKPLRKWE
B8: RING1 RING domain (UniProt Q06587); chain SPRSLHSELMCPICLDMLKNTMTTKECLHRFCSDCIVTALRSGNKECPTCRKKLVSKRSLR
B9: ARIH2 RING domain (UniProt O95376); chain HVPTSHPPHHCAVCMQFVRKENLLSLACQHQFCRSCWEQHCSVLVKDGVGVGVSCMAQDCPLRTPEDFVF
Construct (chain): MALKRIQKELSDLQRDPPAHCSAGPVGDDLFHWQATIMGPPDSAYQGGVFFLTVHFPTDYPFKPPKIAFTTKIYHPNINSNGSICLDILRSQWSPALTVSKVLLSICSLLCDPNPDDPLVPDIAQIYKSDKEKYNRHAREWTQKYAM
Sequence = DDVLTKDAGECVICLEELLQGDTIARLPCLCIYHKSCIDSWFEVNRSCPEHPAD (ZNRF1 RING domain (UniProt Q8ND25)); result = 12200
Sequence = FDPPLESKYECPICLMALREAVQTPCGHRFCKACIIKSIRDAGHKCPVDNEILLENQLFP (TRAF6 RING domain (UniProt Q9Y4K3)); result = 0
Sequence = ASPKIFQKTKCSICNSALELPSVHFLCGHSFHQHCFESYSESDADCPTCLPENRKVMDMI (VPS11 RING domain (UniProt Q9H270)); result = 0
Sequence = B1 (RNF103 RING domain); result = 16400
Sequence = LEALSSDFLACKICLEQLRAPKTLPCLHTYCQDCLAQLADGGRVRCPECRETVPVPPEGV (TRIM56 RING domain (UniProt Q9BRZ2)); result = 0
Sequence = EIKEYKARLTCPCCNTRKKDAVLTKCFHVFCFECVRGRYEARQRKCPKCNAAFGAHDFHR (RNF40 RING domain (UniProt O75150)); result = 0
Sequence = FAEQPSVKLCCQLCCSVFKDPVITTCGHTFCRRCALKSEKCPVDNVKLTVVVNNI (TRAF7 RING domain (UniProt Q6Q0C0)); result = 0
Sequence = B2 (TRIM41 RING domain); result = 0
Sequence = B3 (NFX1 RING domain); result = 0
Sequence = B4 (BFAR RING domain); result = 0
Sequence = ASEEEFQFLRCQQCQAEAKCPKLLPCLHTLCSGCLEASGMQCPICQAPWPLGADTP (PML RING domain (UniProt P29590)); result = 0
Sequence = B5 (VPS8 RING domain); result = 0
Sequence = B6 (ZNRF4 RING domain); result = 13700
Sequence = B7 (MARCHF1 RING domain); result = 0
Sequence = B8 (RING1 RING domain); result = 0
Sequence = B9 (ARIH2 RING domain); result = 0

Sample 5
Target: ABI1, truncated, D143A, DHFR fusion (Arabidopsis thaliana)
Method: DHFR PCA, deep sequencing
Medium: yeast
Notes: methotrexate growth selection, single substitutions
Together with: (+)-ABA 200 µM
Relative to: wild-type fitted maximum
Direction: higher = stronger binding
Measurement: relative binding score
Parent: PYL1, truncated, DHFR fusion (Arabidopsis thaliana); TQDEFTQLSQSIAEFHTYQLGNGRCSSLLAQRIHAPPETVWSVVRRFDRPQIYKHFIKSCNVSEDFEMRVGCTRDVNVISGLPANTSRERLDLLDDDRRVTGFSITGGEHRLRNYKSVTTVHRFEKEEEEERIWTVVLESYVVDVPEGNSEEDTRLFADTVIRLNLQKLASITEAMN
Substitution = V161W; result = 21.8%
Substitution = H16W; result = -16.2%
Substitution = E174K; result = 81.9%
Substitution = V44S; result = 9.71%
Substitution = V121A; result = 39.4%
Substitution = S42K; result = 104%
Substitution = R49D; result = 81.2%
Substitution = R69E; result = 101%
Substitution = R99V; result = 12.6%
Substitution = I79Y; result = 99.3%
Substitution = T154A; result = 84.2%
Substitution = H55W; result = 98.1%
Substitution = R132M; result = 111%
Substitution = M176D; result = 93.1%
Substitution = T39L; result = 99.3%
Substitution = R98W; result = 71.5%
